Published values pooled from the literature.
Lines come from different studies, so protocols differ.
Medium: Caco-2

Structure (SMILES) | concentration | time | pH | measurement | value
Nc1ccc(-c2ccc3ncc4c(=O)[nH]c(=O)n(-c5cccc(C(F)(F)F)c5)c4c3n2)cn1 | – | – | – | Papp A→B | ≤ 2.5 ×10⁻⁶ cm/s
COC(=O)c1ccc2c(c1)NC(=O)/C2=C(\Nc1ccc2c(c1)CCN2C(=O)CN1CCOCC1)c1ccccc1 | 20 µM | 2 h | – | Papp B→A | 0.05 ×10⁻⁶ cm/s
O=C(C1CCN(c2nnnn2-c2ccccc2)CC1)N1CCCc2ccccc21 | 5 µM | 2 h | – | Papp B→A | 26 ×10⁻⁶ cm/s
CCN(CC)CCN=S(=O)(c1ccccc1)N1CCCCC1 (stereo not shown) | – | – | – | Papp A→B | 16.4 ×10⁻⁶ cm/s
O=S(=O)(c1ccccc1)N1CCCCC1 | – | – | – | Papp A→B | 39.3 ×10⁻⁶ cm/s
O=C(O)c1ccc(O)c(CO)c1 | 10 mM | 2 h | – | Papp A→B | 0.1 ×10⁻⁶ cm/s
CO[C@@H](C[C@H]1C(C)=CC[C@@H]2[C@]3(C)C[C@H](O[C@@H]4O[C@@H](C)[C@H](O)[C@@H](O)[C@H]4O)[C@@H](O)C(C)(C)[C@H]3CC[C@]21C)[C@H](N)C(=O)O | 5 µM | 1 h | – | Papp B→A | 0.07 ×10⁻⁶ cm/s
CCCCC[C@@H]1OC(=O)[C@@H](C)NC(=O)[C@H](CCCCC)OC(=O)[C@@H](C)NC(=O)[C@H](CCCCC)OC(=O)[C@@H](C)NC(=O)[C@H](CCCCC)OC(=O)[C@@H](C)NC1=O | 10 µM | – | – | Papp A→B | 0.186 ×10⁻⁶ cm/s
Cc1cc(O)cc(O)c1C(=O)c1c2c3c(c(O)cc(C)c3oc1=O)C(=O)c1c(O)cc(O)cc1-2 | 200 µM | 3 h | pH 7.4 | Papp A→B | 1.17 ×10⁻⁶ cm/s
NC(=O)c1c(F)ccc(OCc2nc3cc(Cl)cnc3s2)c1F | – | – | – | Papp A→B | 48.7 ×10⁻⁶ cm/s
Cc1cnc(Nc2cc(C)c(C)c(C)c2)nc1Nc1ccc2oc(=O)[nH]c2c1 | – | – | pH 6.5 | Papp | 11.2 ×10⁻⁶ cm/s
CCOC(=O)c1cc2cc(-c3cc(C(=O)NCc4ccc(C(=O)O)cc4)nn3C)ccc2[nH]1 | 50 mM | 2.5 h | pH 7.4 | Papp A→B | 0.6 ×10⁻⁶ cm/s
COc1ccc2c(c1OCc1ccccc1)C[C@@H](C(=O)O)N(c1nc3ccc(C#N)cc3o1)C2 | 10 µM | 90 min | pH 7.4 | Papp A→B | 11.3 ×10⁻⁶ cm/s

Excerpt of the above:
Structure (SMILES) | concentration | time | pH | measurement | value
NC(=O)c1c(F)ccc(OCc2nc3cc(Cl)cnc3s2)c1F | – | – | – | Papp A→B | 48.7 ×10⁻⁶ cm/s
